Measured values gathered from unrelated publications.
Each numbered part is a random draw from the data of one study; scales do not carry over between parts. Substitutions count along the parent as printed.
Chain of UniProt P08913 (whole entry, looked up): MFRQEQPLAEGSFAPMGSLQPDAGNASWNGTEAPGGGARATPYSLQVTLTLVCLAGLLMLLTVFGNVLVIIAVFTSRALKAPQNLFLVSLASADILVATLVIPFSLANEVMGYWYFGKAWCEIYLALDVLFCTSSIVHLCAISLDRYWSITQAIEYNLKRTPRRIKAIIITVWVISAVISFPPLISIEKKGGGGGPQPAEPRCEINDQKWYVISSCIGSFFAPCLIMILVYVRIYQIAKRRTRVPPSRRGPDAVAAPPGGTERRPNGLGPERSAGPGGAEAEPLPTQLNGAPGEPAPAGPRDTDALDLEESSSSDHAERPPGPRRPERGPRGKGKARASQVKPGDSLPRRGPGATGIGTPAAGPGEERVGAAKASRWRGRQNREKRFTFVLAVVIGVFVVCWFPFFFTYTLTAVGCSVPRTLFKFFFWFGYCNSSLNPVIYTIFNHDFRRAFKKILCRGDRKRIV

Set 1
Target: CCNB2, cyclin fold, Cln2 fusion (human)
Technique: yeast growth competition, sequencing
Medium: yeast
Setting: weak parent motif
Reference: not given
Direction: higher = stronger binding
Quantity: normalised enrichment score
Starting sequence: CDC25A docking peptide (human); PPHRRRLLFACSP; partner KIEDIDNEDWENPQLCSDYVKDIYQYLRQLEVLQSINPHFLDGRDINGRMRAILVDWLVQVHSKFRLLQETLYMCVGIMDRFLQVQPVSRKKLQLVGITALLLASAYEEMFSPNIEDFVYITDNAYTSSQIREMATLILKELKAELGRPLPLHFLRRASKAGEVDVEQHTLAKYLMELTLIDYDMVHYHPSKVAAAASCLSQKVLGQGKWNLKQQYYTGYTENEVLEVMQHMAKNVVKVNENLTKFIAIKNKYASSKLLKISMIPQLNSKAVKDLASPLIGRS
S12W: 0.48
A10I: -0.221
S12F: 0.566
R6I: 0.0853
P13V: 0.388
C11F: 0.464
R5Q: 0.409
R6Q: 0.619

Set 2
Target: OGT, full length, His-tagged (human)
Technique: phage display, sequencing
Medium: in vitro
Concentration: 1 µg OGT
Setting: single substitutions, 15-mer displayed peptide, unchanged parent 5.27
Reference: input library
Direction: higher = stronger binding
Quantity: fold enrichment
Starting sequence: peptide; GDFPVMFMPKYSIIY
P9G: 0.11 fold
M8W: 3.49 fold
G1V: 5.17 fold
F7D: 1.42 fold
M6V: 3.36 fold
M8T: 1.22 fold
F3M: 3.35 fold
D2E: 3.75 fold

Single results of other studies
CCn1nccc1-c1cc(C(=O)O)c2ccc(C)c(C)c2n1
remaining compound (human, microsomes or S9; 2 µM, 0.5 h): 54.6%

NS(=O)(=O)c1cc(NC(=O)Cc2ccccc2)ccc1Oc1cccc(Cl)c1
inhibition (ADRA2A (Homo sapiens, UniProt P08913); ligand displacement; 10 µM): 6.31%

Repeated from above (set 1):
C11F: 0.464
R5Q: 0.409
R6Q: 0.619
